Assay results of several laboratories.
Protocols differ between the studies behind these lines. ± gives the spread as reported.
Organism: Salmonella typhimurium

| SMILES | assay | test system | conditions | scale | quantity | result |
| --- | --- | --- | --- | --- | --- | --- |
| CC(=O)N1CCC(C(=O)N2CCN3C(=O)c4cc(-c5ccccc5)ccc4NC(=O)C3C2)CC1 (stereo not drawn) |  | TA1535 | 158 µg/plate, added: rat liver S9 |  | revertants per plate | 8.5 |
| N#C[C@@]1(n2ccc(N)nc2=O)O[C@H](CO)[C@@H](O)[C@H]1O |  | TA1535 | 600 nM, without S9 |  | viability | 114% |
| Cc1cc(C(=O)NC(C)(C)COc2cccc3c2C(N)=NS(=O)(=O)N3)cc(C)n1 | Ames test, initial | TA98 | 1.50 µg/plate, added: rat liver S9 | reference: solvent control | revertant ratio | 0.8 |
| O=[N+]([O-])c1ccc(N2CCC(NCCC(O)c3ccc(F)c4ccccc34)CC2)c(C(F)(F)F)c1 (stereo not drawn) | SOS/umu test | TA1535/pSK1002, TGA medium | 7.63e-06 mg/mL, 4 h, added: 10% rat liver S9 |  | survival | 97% |
| CC(C)N(C)N=O | mutagenicity, Ames plate incorporation | TA1535 | 50 µg/plate, 3 d, without S9, methanol |  | revertant colonies per plate | 19 ± 5 |
| O=[N+]([O-])c1ccc(N2CCN(CCC(O)c3ccc(F)cc3)CC2)c(C(F)(F)F)c1 (stereo not drawn) | SOS/umu test | TA1535/pSK1002 | 0.125 mg/mL, 4 h, with S9, full range |  | survival | 42.6% |
| CN(N=O)c1ccc(F)cc1 | mutagenicity, Ames plate incorporation | TA1537 | 2500 µg/plate, 3 d, without S9, methanol |  | revertant colonies per plate | 7 ± 3 |
| OC(CCN1CC=C(c2ccc(F)cc2)CC1)c1ccc(F)c2ccccc12 (stereo not drawn) | genotoxicity, SOS/umu test | TA1535/pSK1002 | 0.063 mg/mL, 4 h, without S9, lower range |  | induction factor | 0.7 |
| CN(CC(C)(C)C)N=O | mutagenicity, Ames plate incorporation | TA1535 | 500 µg/plate, without S9, methanol |  | revertant colonies per plate | 23.3 ± 3 |
| COc1cccc(-c2n[nH]c(SCc3ccccn3)n2)c1OC | Ames preincubation | TA98 | 1.0 mg per plate, added: rat liver S9 |  | revertant colonies per plate | 7 |
| CNC(=O)c1c(N(C)N=O)ncn1C | plate incorporation | TA100, water | 2500 µg/plate, without S9 |  | revertant colonies per plate | 197 ± 21 |
| O=[N+]([O-])c1ccc(NC2CCNCC2)c(C(F)(F)F)c1 | genotoxicity, SOS/umu test | TA1535/pSK1002 | 0.002 mg/mL, 4 h, without S9, full range |  | induction factor | 0.6 |

Repeated from above:
| SMILES | assay | test system | conditions | scale | quantity | result |
| --- | --- | --- | --- | --- | --- | --- |
| CC(C)N(C)N=O | mutagenicity, Ames plate incorporation | TA1535 | 50 µg/plate, 3 d, without S9, methanol |  | revertant colonies per plate | 19 ± 5 |
| O=[N+]([O-])c1ccc(N2CCN(CCC(O)c3ccc(F)cc3)CC2)c(C(F)(F)F)c1 (stereo not drawn) | SOS/umu test | TA1535/pSK1002 | 0.125 mg/mL, 4 h, with S9, full range |  | survival | 42.6% |
